Measured values of several laboratories.
Lines come from different studies, so protocols differ. Values joined by “and” are separate records of one study, mostly repeats; a detail may differ. ± gives the spread as reported.

`COc1cnc2cccc(N3CCc4c(cc(Cn5ccnc5)cc4-c4cn(C)nc4C(F)(F)F)C3=O)c2c1` has a body weight of 24.2 g and 21.3 g and 24 g and 25.9 g and 21 g (BALB/c nude mice, MV4-11 xenograft; intraperitoneal, 75 mg/kg, day 35).
Under “peptide remaining intact”, `CC(C)C[C@H](NC(=O)[C@H](Cc1ccccc1)NC(=O)CNC(=O)CNC(=O)[C@@H](N)Cc1ccc(O)cc1)C(=O)N[C@@H](CSCB(O)O)C(N)=O` is recorded as 76% (RP-HPLC; PBS; concentration not given, 24 h, pH 7.4, added: GSH 1 mM).
For `CC(C)C[C@H](NC(=O)[C@H](Cc1ccc(O)cc1)NC(=O)[C@H](Cc1c[nH]cn1)NC(=O)[C@@H](NC(=O)[C@H](CC(C)C)NC(=O)[C@H](C)NC(=O)[C@H](C)NC(=O)[C@H](CCCCN)NC(=O)CNC(=O)[C@@H](NC(=O)[C@H](Cc1c[nH]cn1)NC(=O)[C@H](CCCCN)NC(=O)CNC(=O)[C@@H](NC(=O)[C@H](Cc1c[nH]cn1)NC(=O)[C@H](C)NC(=O)[C@H](C)NC(=O)[C@H](CCCCN)NC(=O)[C@H](CCCCN)NC(=O)[C@H](Cc1ccccc1)NC(=O)[C@H](Cc1ccccc1)NC(=O)[C@H](CO)NC(=O)CNC(=O)[C@H](Cc1c[nH]c2ccccc12)NC(=O)CN)C(C)C)C(C)C)[C@@H](C)O)C(N)=O`, “acute toxic concentration” read 5 µM (zebrafish embryos 4 hpf, E3 medium; 1 h).
`CC(CCC(=O)NCC(=O)O)C1CCC2C3C(O)CC4CC(OC5OC(C(=O)O)C(O)C(O)C5O)CCC4(C)C3CCC12C` (stereo not shown): “ratio of metabolic ratios” 5.73 (measured: glucuronide to parent ratio; men, plasma; dose not given; reference: C/C over T/T).
`CC(C(=O)O)n1nc(Cn2cc3cc(OCC[18F])c(Cl)cc3n2)c2ccccc2c1=O` (racemic) gave a lipophilic radiometabolite of 3% (HPLC; nonhuman primate, plasma; 60 min post-injection; reference: plasma radioactivity).
For `COc1ccc(CNc2ccc3c(c2)S(=O)(=O)C=C3)cc1`, “mean corpuscular volume” read 51.2 fL (male C57BL/6 mice, blood; intraperitoneal, 5 mg/kg, day 8, group average).
The haematocrit of `O=C(c1cc(Cc2n[nH]c(=O)c3ccccc23)ccc1F)N1CC(CNC2CC2)C1` is reported as 41.6 ± 3.2% (Wistar Han rat, female, blood; oral, 30 mg/kg daily, 4 weeks).
For `CSCC[C@H](NC(=O)CNC(=O)[C@H](CCCCN)NC(=O)[C@H](CC(C)C)NC(=O)[C@@H]1CCCN1C(=O)[C@H](CO)NC(=O)[C@H](Cc1c[nH]cn1)NC(=O)[C@H](Cc1c[nH]c2ccccc12)NC(=O)[C@H](CCCNC(=N)N)NC(=O)[C@H](CC(C)C)NC(=O)[C@H](CCCNC(=N)N)NC(=O)[C@H](Cc1c[nH]c2ccccc12)NC(=O)[C@H](CS)NC(=O)CCCCCNC(=O)CN1CCN(CC(=O)O)CCN(CC(=O)O)CCN(CC(=O)O)CC1)C(=O)O` [copper-64 labelled], the tissue uptake was 2.58 %ID/g (BALB/c nude mouse, Huh-7 tumour, lymph node; intravenous, 1 h, ex vivo biodistribution).
`N=C(N)NCCC[C@H](NC(=O)[C@H](CCCNC(=N)N)NC(=O)[C@H](CCCNC(=N)N)NC(=O)[C@H](CCC(N)=O)NC(=O)[C@H](CCCNC(=N)N)NC(=O)[C@H](CCCNC(=N)N)NC(=O)[C@H](CCCCN)NC(=O)[C@H](CCCCN)NC(=O)[C@H](CCCNC(=N)N)NC(=O)CNC(=O)[C@H](Cc1ccc(O)cc1)NC(=O)[C@H](Cc1ccccc1)NC(=O)[C@H](Cc1ccccc1)NC(=O)[C@H](Cc1ccccc1)NC(=O)OCC1c2ccccc2-c2ccccc21)C(=O)O` gave a health score of 5 (C57BL/6 mice; intraperitoneal, 10 mg/kg, 24 h; direction not given).
The serum sodium of `O=C1NC2(CC2)COc2ncc(F)cc2[C@H]2COCCN2c2ccn3ncc1c3n2` is reported as 144 ± 1 mmol/L (Sprague-Dawley rat, female, serum; oral, 2.5 mg/kg/day, end of recovery, 4-week subacute toxicity).
`CC(C)[C@@H]1NC(=O)CNC(=O)[C@H](CC(N)=O)NC(=O)[C@H](CCCNC(=N)N)NC(=O)[C@H](Cc2ccc(O)cc2)NC(=O)[C@H](C(C)C)NC(=O)[C@@H](NC(=O)[C@@H](NC(=O)[C@H](CC(N)=O)NC(=O)[C@H](Cc2c[nH]c3ccccc23)NC(=O)[C@H](C)NC(=O)[C@H](Cc2ccccc2)NC(=O)CNC(=O)[C@H](CCCCN)NC(=O)[C@H](Cc2ccccc2)NC(=O)[C@H](Cc2ccccc2)NC(=O)[C@H](CCCCN)NC(=O)OCC2c3ccccc3-c3ccccc32)C(C)C)CSSC[C@@H](C(=O)N[C@@H](Cc2c[nH]cn2)C(=O)N[C@@H](CCCNC(=N)N)C(=O)N[C@@H](CCCNC(=N)N)C(=O)N[C@@H](C)C(=O)N[C@@H](CC(N)=O)C(N)=O)NC(=O)[C@H](C(C)C)NC(=O)[C@H](CCCNC(=N)N)NC1=O` has an AST/ALT ratio of 0.55 ± 0.03 (ICR mice, serum; intraperitoneal, 5 mg/kg, day 5; reference: AST over ALT).
The half-life of `Cc1ccc(CNC(=O)c2ccn3c(-c4ccc(C#N)cc4)cnc3c2)cn1` is reported as 1.58 h (metabolic stability; rat, liver microsomes).
`COc1ccccc1[C@@H](NS(=O)(=O)c1cc2ccc(O)nc2cc1Cl)C(=O)N(CC(=O)NCCn1cc(COCCOCC(=O)N[C@H](C(=O)N2C[C@H](O)C[C@H]2C(=O)NCc2ccc(-c3scnc3C)cc2)C(C)(C)C)nn1)Cc1cccs1` has a logD of 2.3 (fast-gradient HPLC; pH 7.4).
For `CCN(CCCCOc1ccc(CCC(=O)N2CCC(Cc3ccccc3)CC2)cc1OC)Cc1ccccc1`, the excreted amount was 365 ± 163 ng (Sprague-Dawley rats, both sexes, urine; oral gavage, 25 mg/kg, 12 to 24 h).
The skin permeation of `CC(=O)NCC(=O)N[C@@H](Cc1ccc(O)cc1)C(=O)NCC(=O)N[C@@H](CO)C(=O)N[C@@H](CO)C(=O)N[C@@H](CO)C(=O)N[C@@H](CCCNC(=N)N)C(=O)N[C@@H](CCCNC(=N)N)C(=O)N[C@@H](C)C(=O)N1CCC[C@H]1C(=O)N[C@@H](CCC(N)=O)C(=O)N[C@H](C(=O)O)[C@@H](C)O` is reported as < 1% (mouse skin; 24 h).
`CC[C@H](C)[C@H](NC(=O)[C@H](CCCCN)NC(=O)CNC(=O)[C@H](CC(C)C)NC(=O)[C@H](Cc1ccccc1)NC(=O)[C@H](CCCCN)NC(=O)[C@H](CO)NC(=O)[C@H](Cc1ccccc1)NC(=O)[C@H](Cc1c[nH]c2ccccc12)NC(=O)[C@H](CCC(N)=O)NC(=O)[C@@H](NC(=O)[C@H](Cc1ccccc1)NC(=O)CCCCCNC(=O)CN1CCN(CC(=O)O)CCN(CC(=O)O)CCN(CC(=O)O)CC1)C(C)C)C(=O)N[C@@H](CCC(=O)O)C(=O)N1CCC[C@H]1C(=O)N[C@@H](CC(=O)O)C(=O)N[C@H](C(=O)N[C@@H](CO)C(=O)N[C@@H](CCC(N)=O)C(=O)N[C@H](C(=O)N[C@@H](CCC(N)=O)C(=O)N[C@@H](CC(=O)O)C(=O)N1CCC[C@H]1C(=O)N[C@@H](CC(N)=O)C(=O)N[C@@H](CC(=O)O)C(=O)N[C@@H](CCC(N)=O)C(=O)N[C@@H](Cc1ccc(O)cc1)C(=O)N[C@@H](CCC(=O)O)C(=O)N1CCC[C@H]1C(=O)N[C@@H](Cc1ccccc1)C(=O)O)C(C)C)C(C)C` [copper-64 labelled] has a tissue uptake of 1.32 ± 0.4 %ID/g (BALB/c mice, male, CT26 tumour-bearing, heart; 2 h, anti-PD1 plus anti-CTLA4 treated).
The C0 of `CCCCCCCCCCCCCC(=O)N[C@H](CCN)C(=O)N[C@@H]1C(=O)N[C@@H](CCN)C(=O)N[C@@H](CC(C)C)C(=O)N[C@@H](CCN)C(=O)N[C@H](Cc2ccccc2)C(=O)N[C@@H](CC(C)C)C(=O)N[C@@H](CCN)C(=O)N[C@H](CCN)C(=O)N[C@@H](C(C)C)C(=O)N[C@@H](CC(=O)O)C(=O)O[C@@H]1C` is reported as 28.1 µg/mL (rat, plasma; intravenous, 5 mg/kg).
`CC(C)[C@H](NC(=O)[C@@H](NC(=O)[C@H](CCCNC(=N)N)NC(=O)[C@H](CCCNC(=N)N)NC(=O)[C@H](CCCNC(=N)N)NC(=O)[C@H](CCC(N)=O)NC(=O)[C@H](CCCNC(=N)N)NC(=O)[C@H](CCCNC(=N)N)NC(=O)[C@H](CCCCN)NC(=O)[C@H](CCCCN)NC(=O)[C@H](CCCNC(=N)N)NC(=O)CN)[C@@H](C)O)C(=O)N[C@H](C(=O)N[C@@H](CO)C(=O)N1CCC[C@H]1C(=O)O)[C@@H](C)O` gave a kidney weight of 0.292 ± 0.016 g (ICR mouse, male, left kidney; intranasal, 10 mg/kg daily, 4 weeks).
With `CSCC[C@H](N)C(=O)N[C@@H](C)C(=O)N[C@@H](CCCNC(=N)N)C(=O)N[C@@H](CCCNC(=N)N)C(=O)N[C@@H](CC(=O)O)C(=O)N[C@@H](CCCCN)C(=O)N[C@H](C(=O)N[C@@H](CC(=O)O)C(=O)N[C@@H](Cc1ccccc1)C(=O)N[C@@H](C)C(=O)N[C@@H](CCCNC(=N)N)C(=O)N[C@@H](CCCNC(=N)N)C(=O)N[C@@H](CCCNC(=N)N)C(=O)N[C@@H](CCCNC(=N)N)C(=O)NCCCCCC(=O)NCCCCC(NC(=O)CCCCCNC(=O)[C@H](CCCNC(=N)N)NC(=O)[C@H](CCCNC(=N)N)NC(=O)[C@H](CCCNC(=N)N)NC(=O)[C@H](CCCNC(=N)N)NC(=O)[C@H](C)NC(=O)[C@H](Cc1ccccc1)NC(=O)[C@H](CC(=O)O)NC(=O)[C@@H](NC(=O)[C@H](CCCCN)NC(=O)[C@H](CC(=O)O)NC(=O)[C@H](CCCNC(=N)N)NC(=O)[C@H](CCCNC(=N)N)NC(=O)[C@H](C)NC(=O)[C@@H](N)CCSC)[C@@H](C)O)C(=O)NCCCCC(NC(=O)C(CCCCNC(=O)CCCCCNC(=O)[C@H](CCCNC(=N)N)NC(=O)[C@H](CCCNC(=N)N)NC(=O)[C@H](CCCNC(=N)N)NC(=O)[C@H](CCCNC(=N)N)NC(=O)[C@H](C)NC(=O)[C@H](Cc1ccccc1)NC(=O)[C@H](CC(=O)O)NC(=O)[C@@H](NC(=O)[C@H](CCCCN)NC(=O)[C@H](CC(=O)O)NC(=O)[C@H](CCCNC(=N)N)NC(=O)[C@H](CCCNC(=N)N)NC(=O)[C@H](C)NC(=O)[C@@H](N)CCSC)[C@@H](C)O)NC(=O)CCCCCNC(=O)[C@H](CCCNC(=N)N)NC(=O)[C@H](CCCNC(=N)N)NC(=O)[C@H](CCCNC(=N)N)NC(=O)[C@H](CCCNC(=N)N)NC(=O)[C@H](C)NC(=O)[C@H](Cc1ccccc1)NC(=O)[C@H](CC(=O)O)NC(=O)[C@@H](NC(=O)[C@H](CCCCN)NC(=O)[C@H](CC(=O)O)NC(=O)[C@H](CCCNC(=N)N)NC(=O)[C@H](CCCNC(=N)N)NC(=O)[C@H](C)NC(=O)[C@@H](N)CCSC)[C@@H](C)O)C(N)=O)[C@@H](C)O` (stereo partly shown) the tissue distribution was 9.9% and 8.33% and 15.9% (mouse C57BL/6 female, small intestine; 6 h, radioiodinated peptide; reference: total radioactivity).

Excerpt of the above:
`CC(C)[C@H](NC(=O)[C@@H](NC(=O)[C@H](CCCNC(=N)N)NC(=O)[C@H](CCCNC(=N)N)NC(=O)[C@H](CCCNC(=N)N)NC(=O)[C@H](CCC(N)=O)NC(=O)[C@H](CCCNC(=N)N)NC(=O)[C@H](CCCNC(=N)N)NC(=O)[C@H](CCCCN)NC(=O)[C@H](CCCCN)NC(=O)[C@H](CCCNC(=N)N)NC(=O)CN)[C@@H](C)O)C(=O)N[C@H](C(=O)N[C@@H](CO)C(=O)N1CCC[C@H]1C(=O)O)[C@@H](C)O` gave a kidney weight of 0.292 ± 0.016 g (ICR mouse, male, left kidney; intranasal, 10 mg/kg daily, 4 weeks).
The skin permeation of `CC(=O)NCC(=O)N[C@@H](Cc1ccc(O)cc1)C(=O)NCC(=O)N[C@@H](CO)C(=O)N[C@@H](CO)C(=O)N[C@@H](CO)C(=O)N[C@@H](CCCNC(=N)N)C(=O)N[C@@H](CCCNC(=N)N)C(=O)N[C@@H](C)C(=O)N1CCC[C@H]1C(=O)N[C@@H](CCC(N)=O)C(=O)N[C@H](C(=O)O)[C@@H](C)O` is reported as < 1% (mouse skin; 24 h).
`CC[C@H](C)[C@H](NC(=O)[C@H](CCCCN)NC(=O)CNC(=O)[C@H](CC(C)C)NC(=O)[C@H](Cc1ccccc1)NC(=O)[C@H](CCCCN)NC(=O)[C@H](CO)NC(=O)[C@H](Cc1ccccc1)NC(=O)[C@H](Cc1c[nH]c2ccccc12)NC(=O)[C@H](CCC(N)=O)NC(=O)[C@@H](NC(=O)[C@H](Cc1ccccc1)NC(=O)CCCCCNC(=O)CN1CCN(CC(=O)O)CCN(CC(=O)O)CCN(CC(=O)O)CC1)C(C)C)C(=O)N[C@@H](CCC(=O)O)C(=O)N1CCC[C@H]1C(=O)N[C@@H](CC(=O)O)C(=O)N[C@H](C(=O)N[C@@H](CO)C(=O)N[C@@H](CCC(N)=O)C(=O)N[C@H](C(=O)N[C@@H](CCC(N)=O)C(=O)N[C@@H](CC(=O)O)C(=O)N1CCC[C@H]1C(=O)N[C@@H](CC(N)=O)C(=O)N[C@@H](CC(=O)O)C(=O)N[C@@H](CCC(N)=O)C(=O)N[C@@H](Cc1ccc(O)cc1)C(=O)N[C@@H](CCC(=O)O)C(=O)N1CCC[C@H]1C(=O)N[C@@H](Cc1ccccc1)C(=O)O)C(C)C)C(C)C` [copper-64 labelled] has a tissue uptake of 1.32 ± 0.4 %ID/g (BALB/c mice, male, CT26 tumour-bearing, heart; 2 h, anti-PD1 plus anti-CTLA4 treated).
